Results collected from several papers.
Each numbered part is a random draw from the data of one study; scales do not carry over between parts. Positions count from the first letter of the parent shown.

Block 1 — target: CRIPT, C-terminal peptide; method: DHFR complementation, deep sequencing; sample: yeast; baseline: wild type; reading: higher = weaker binding
Setting: single substitutions, model-inferred values
Starting sequence: ERBIN, PDZ domain 1 (human); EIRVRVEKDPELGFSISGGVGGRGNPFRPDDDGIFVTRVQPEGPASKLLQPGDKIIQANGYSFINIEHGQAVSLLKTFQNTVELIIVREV; partner TKNYKQTSV
| Change | binding free energy change [kcal/mol] |
| --- | --- |
| K8T | 1.27 |
| G19Y | 1.69 |
| K8Q | 1.04 |
| L84D | 1.02 |
| G18F | 1.36 |
| D9F | 0.608 |
| F35K | 0.923 |
| I2E | 0.25 |
| P10Y | -0.412 |
| S17E | 1.31 |
| S17Q | 0.919 |
| F63V | 0.166 |
| F78H | 0.339 |
| A45C | -0.072 |
| G24Q | 1.82 |
| A58H | 1.72 |
| S73K | -0.0389 |
| E7R | -0.221 |
| F35P | 1.13 |
| A71D | 1.13 |
| L75P | 0.618 |
| D32G | 0.28 |
| S46W | -0.00892 |
| D9S | -0.168 |
| G13Y | 1.05 |

Block 2 — method: RNA Bind-n-Seq; molecule type: RNA; sample: in vitro; tested at: 1 µM; setting: whole 134-nt RNA, ends assumed; together with: 150 mM KCl; baseline: input library; reading: higher = stronger binding
Target: Ras GTPase-activating protein-binding protein 1, RRM domain (G3BP1, Homo sapiens, UniProt Q13283)
Chain of UniProt Q13283 (whole entry, looked up): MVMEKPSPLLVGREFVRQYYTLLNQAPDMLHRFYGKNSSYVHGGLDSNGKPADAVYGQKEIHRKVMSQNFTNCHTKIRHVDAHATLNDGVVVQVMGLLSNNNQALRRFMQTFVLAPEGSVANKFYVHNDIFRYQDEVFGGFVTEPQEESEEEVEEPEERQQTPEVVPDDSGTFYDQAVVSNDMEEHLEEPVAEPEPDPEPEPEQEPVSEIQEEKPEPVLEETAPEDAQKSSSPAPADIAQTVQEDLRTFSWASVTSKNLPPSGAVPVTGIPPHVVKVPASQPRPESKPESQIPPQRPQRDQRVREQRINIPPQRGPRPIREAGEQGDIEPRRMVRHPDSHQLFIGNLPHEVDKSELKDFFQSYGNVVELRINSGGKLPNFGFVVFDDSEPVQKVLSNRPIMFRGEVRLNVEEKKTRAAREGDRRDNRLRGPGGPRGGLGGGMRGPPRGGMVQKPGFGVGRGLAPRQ
| Oligonucleotide | log2 enrichment |
| --- | --- |
| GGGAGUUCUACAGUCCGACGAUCUCAAGUCCUGUGCUACACAUCGUAUGUACCGAAUCGGGUGGGUUUUUGGGAGGGAAAGUAUUAUGUUACGCCGUUCGGAUCUGCACUUCCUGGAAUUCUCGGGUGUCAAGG | 0.517 |
| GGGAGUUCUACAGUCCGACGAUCCCUCAAGUCCUGUGCUACACAUCGUAUGUACCGAAUCGGGUGGGUGGUGGGGAAAGUAUUAUGUUACGCCGUUCGGAUCUGCACUUCCAGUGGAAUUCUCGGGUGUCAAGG | 0.281 |
| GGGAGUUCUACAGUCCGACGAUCAGUCCUGUGCUACACAUCGUAUGUACCGAAUCGGGGAGGGGUUUUUGGGGAAAGGGGAAAGUAUUAUGUUACGCCGUUCGGAUCUGCACUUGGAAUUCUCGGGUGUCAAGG | 1.04 |
| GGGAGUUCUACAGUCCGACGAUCAAGUCCUGUGCUACACAUCGUAUGUACCGAAUCGGGUUUUGGUUUUGGGGUUUUGGAAAGUAUUAUGUUACGCCGUUCGGAUCUGCACUUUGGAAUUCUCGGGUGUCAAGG | -0.222 |
| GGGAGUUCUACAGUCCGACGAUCUGGCCCUGGUGGCAUGCGGGGAGGAAGAGGUGGCCUCAUGGAUCGUGGUGGUCCCUGUGGAAUGUUCAGAGGUGGCCGUGGUGGAGACAGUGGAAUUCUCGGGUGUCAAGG | 0.56 |
| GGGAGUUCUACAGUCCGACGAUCCCUGUGCUACACAUCGUAUGUACCGAAUCAAAUUUUUAAACCCCCCCAAAUUUUUUUAAAAAAGUAUUAUGUUACGCCGUUCGGAUCUGCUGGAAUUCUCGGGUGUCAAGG | -0.483 |
| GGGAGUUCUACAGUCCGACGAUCUCAAGUCCUGUGCUACACAUCGUAUGUACCGAAUCGGAAAAGGAAAAGGAAAAGGAAAGUAUUAUGUUACGCCGUUCGGAUCUGCACUUCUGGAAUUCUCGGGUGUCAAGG | -0.0814 |
| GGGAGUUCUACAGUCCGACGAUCCUGUGCUACACAUCGUAUGUACCGAAUCGGGCCCCCCCGGGCCCCCCCGGGCCCCCCCGGGGAAAGUAUUAUGUUACGCCGUUCGGAUCUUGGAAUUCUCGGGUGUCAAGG | -0.678 |
| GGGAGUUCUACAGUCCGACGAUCUUGAGAAGAAGCAAAAAGAGAUGGAUGAAGCUGCUACGGUGAGAGAAAACCCACUAUCGAUUCCACUCACCACUUACCUCCUUCCCUUACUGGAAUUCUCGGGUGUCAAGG | 0.0365 |
| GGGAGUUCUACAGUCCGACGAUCUGCAGCAGCGCCAGGAAUCGAGGAUGGUAAAAUGACCCAGGGGAAGAAGAAGAAACGGGCCGCGAACCGCAGUAUCAUGCUGGCCAAGAAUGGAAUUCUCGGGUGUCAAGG | -0.156 |
| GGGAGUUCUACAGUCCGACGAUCCAAGUCCUGUGCUACACAUCGUAUGUACCGAAUCGGUUUGGGUUUGGGGUUUGGGGAAAGUAUUAUGUUACGCCGUUCGGAUCUGCACUUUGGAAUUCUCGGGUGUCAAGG | -0.293 |
| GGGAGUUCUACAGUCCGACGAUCAGUCCUGUGCUACACAUCGUAUGUACCGAAUCAAAUUUAAAUUUAAACCCCCCCAAAAAAGUAUUAUGUUACGCCGUUCGGAUCUGCACUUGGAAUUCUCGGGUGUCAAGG | -0.477 |
| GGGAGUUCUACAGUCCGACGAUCUAACUUUAGAGGAGGAUCUGAUGGAUACGGCAGUGGACGUGGAUUUGGGGAUGGCUAUAAUGGGUAUGGAGGAGGACCUGGAGGUGGCAAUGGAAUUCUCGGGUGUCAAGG | -0.728 |
| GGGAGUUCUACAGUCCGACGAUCCACAGACAACACGCACCCACACAGACGCAGAGGGAAGGGGUUGGGAUGGGGACAGGGUGCACAGCAGGGCGGGGUAGGACCCCAGCCCCUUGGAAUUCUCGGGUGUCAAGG | 0.118 |

Block 3 — target: CCND1, cyclin fold, Cln2 fusion (human); method: yeast growth competition, sequencing; sample: yeast; setting: weak parent motif; baseline: not given; reading: higher = stronger binding
Starting sequence: RB1 docking peptide (human); PKPLKKLRFDIEG
| Change | normalised enrichment score |
| --- | --- |
| PKILKKLRFDIEG [P3I] | 0.232 |
| PKPLKKLRFDIEN [G13N] | 0.208 |
| PKPLKKLRFDIEM [G13M] | -0.0967 |
| PKPLKKLRSDIEG [F9S] | -0.298 |
| RKPLKKLRFDIEG [P1R] | -0.179 |
| PKPLKVLRFDIEG [K6V] | 0.53 |
| PKPLKKLRFVIEG [D10V] | 0.161 |
| PKPLKKLGFDIEG [R8G] | -0.138 |
| PKRLKKLRFDIEG [P3R] | 0.108 |
| PLPLKKLRFDIEG [K2L] | 0.474 |
| PKPLKELRFDIEG [K6E] | 0.174 |
| PKPLKKLRFDGEG [I11G] | -0.458 |
| PKPLKKLRFKIEG [D10K] | 0.419 |
| PKPDKKLRFDIEG [L4D] | 0.465 |
| PKPVKKLRFDIEG [L4V] | -0.0334 |
| PKKLKKLRFDIEG [P3K] | -0.186 |
| PKPLMKLRFDIEG [K5M] | 0.0711 |
| PKPLKKMRFDIEG [L7M] | -0.181 |
| PKPLKLLRFDIEG [K6L] | 0.523 |

Block 4 — method: protein binding microarray; molecule type: double-stranded DNA, one strand shown; sample: in vitro; tested at: not given; baseline: not given; reading: higher = stronger binding
Target: Histone acetyltransferase KAT6A, winged helix 2, GST fusion (KAT6A, Homo sapiens, UniProt Q92794, residues 85-181)
Setting: 8-mer, flanks averaged, mean of 2 arrays, mostly near background
Residues (chain): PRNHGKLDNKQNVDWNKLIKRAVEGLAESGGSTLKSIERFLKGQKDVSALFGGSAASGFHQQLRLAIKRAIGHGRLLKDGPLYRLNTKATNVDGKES
| Oligonucleotide | E-score |
| --- | --- |
| CGCAAGAC | -0.0233 |
| CGGTAATA | -0.111 |
| CACGCGGC | 0.0567 |
| AGACTCGA | -0.0994 |
| CGTGTTGA | 0.0475 |
| GCCAGAAC | 0.0881 |
| CCCGAACC | 0.15 |
| CTGTCTTA | 0.0307 |
| CAGGGTCA | 0.016 |
| AAATAGAG | 0.0695 |
| AGGGCGGC | 0.0196 |
| AAGAGCGC | -0.0686 |
| TCAGAAAA | 0.0652 |
| CGTTCCAC | 0.00673 |
| TCGGTGCA | 0.0838 |
| TGGTAACA | 0.0654 |
| CGGAGCAG | 0.109 |
| GATGCGAA | 0.00518 |
| AACCTCTG | -0.0339 |
| ATATCTTA | 0.163 |
| CTACTTCC | -0.0569 |
| AACTTTGT | -0.0227 |

Block 5 — method: protein-binding microarray; molecule type: double-stranded DNA, one strand shown; sample: in vitro; tested at: not given; reading: higher = stronger binding
Target: Protein C-ets-1 (ETS1, Homo sapiens, UniProt P14921, residues 1-441, K379A, full length assumed)
Chain of UniProt P14921 (whole entry, unmodified, looked up): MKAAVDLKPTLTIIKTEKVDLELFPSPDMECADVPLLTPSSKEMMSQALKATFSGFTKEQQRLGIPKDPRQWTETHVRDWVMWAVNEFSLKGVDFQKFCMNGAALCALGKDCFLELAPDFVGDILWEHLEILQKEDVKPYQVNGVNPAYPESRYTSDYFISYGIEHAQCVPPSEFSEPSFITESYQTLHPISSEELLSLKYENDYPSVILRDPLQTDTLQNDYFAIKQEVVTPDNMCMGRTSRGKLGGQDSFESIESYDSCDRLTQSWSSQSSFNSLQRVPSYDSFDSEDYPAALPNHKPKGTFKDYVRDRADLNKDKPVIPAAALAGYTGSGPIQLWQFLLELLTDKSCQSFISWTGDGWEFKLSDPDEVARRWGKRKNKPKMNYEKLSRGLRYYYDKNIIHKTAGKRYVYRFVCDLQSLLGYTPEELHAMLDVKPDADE
Setting: k-mer, scored over probes, only values ≥0.25
| Oligonucleotide | E-score |
| --- | --- |
| ATCCCGGC | 0.278 |
| ATGACACC | 0.328 |
| GGCGGACA | 0.276 |
| CCGGCGTC | 0.27 |
| ATACAACC | 0.257 |
| CAAGAACC | 0.251 |
| ATCCGGTC | 0.35 |
| ACCGTCAC | 0.297 |
| CCGTCAAA | 0.319 |
| CCGGGACA | 0.406 |
| GTATCATA | 0.274 |
| AGGGCGGG | 0.264 |
| AACCGGGG | 0.444 |
| AATGACCG | 0.266 |
| CACCGGAG | 0.34 |
| CCGGGGCC | 0.307 |
| CCGGTCTC | 0.311 |
| ATAACCGC | 0.256 |
| CGGTGACA | 0.269 |
| CCGGATGC | 0.424 |
| CGGAAGCA | 0.332 |
| ACGCAACC | 0.278 |
| AATACAAG | 0.265 |
| ATAACGAC | 0.283 |
| AACGATGT | 0.318 |

Block 6 — method: DHFR PCA, deep sequencing; sample: yeast; together with: (+)-ABA 17 µM; baseline: wild-type fitted maximum; reading: higher = stronger binding
Target: ABI1, truncated, D143A, DHFR fusion (Arabidopsis thaliana)
Setting: methotrexate growth selection, single substitutions
Starting sequence: PYL1, truncated, DHFR fusion (Arabidopsis thaliana); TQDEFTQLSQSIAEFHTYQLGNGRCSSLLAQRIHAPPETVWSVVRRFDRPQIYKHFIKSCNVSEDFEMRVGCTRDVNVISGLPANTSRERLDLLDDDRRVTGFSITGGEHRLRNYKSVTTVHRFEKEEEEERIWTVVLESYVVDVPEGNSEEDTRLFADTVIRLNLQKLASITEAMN
| Change | relative binding score [%] |
| --- | --- |
| P146T | 19.4 |
| V142C | 82.5 |
| S59T | 82.5 |
| R123T | 87.2 |
| V40A | 14.7 |
| D153C | 9.43 |
| R132W | 54.6 |
| C25G | -0.0745 |
| I172N | 16.2 |
| V43N | 7.43 |
| S171E | 94.2 |
| I162F | -15.5 |
| W134T | 100 |
| W41H | -28.5 |
| S59H | 67.2 |
| I162G | -11.2 |

Block 7 — method: Sort-seq; measured: YFP reporter; sample: E. coli; setting: PhoQ-PhoP variant library; together with: 10 µM Mg2+; baseline: high Mg2+ state; reading: higher = stronger signaling
Molecule: PhoQ, residues 284 288 289 292 302 303 TNASYF
| target | fold induction |
| --- | --- |
| PhoP, residues 12 14 15 18 19 TQCLL (Escherichia coli, UniProt P23836) | 14.2 |
| PhoP, residues 12 14 15 18 19 ICWRQ (Escherichia coli, UniProt P23836) | 4.12 |
| PhoP, residues 12 14 15 18 19 VHTVL (Escherichia coli, UniProt P23836) | 8.24 |

Repeated from above (block 1):
| Change | binding free energy change [kcal/mol] |
| --- | --- |
| D9F | 0.608 |
| F35K | 0.923 |
| I2E | 0.25 |
| P10Y | -0.412 |
| S17E | 1.31 |
| S17Q | 0.919 |
| F63V | 0.166 |
| F78H | 0.339 |
| A45C | -0.072 |
| G24Q | 1.82 |
| A58H | 1.72 |
| S73K | -0.0389 |
| E7R | -0.221 |
| F35P | 1.13 |
| A71D | 1.13 |
| L75P | 0.618 |
| D32G | 0.28 |
| S46W | -0.00892 |
